Experimental data gathered from unrelated publications.
Lines come from different studies, so protocols differ.

| SMILES | test | system | setting | scale | endpoint | value |
| --- | --- | --- | --- | --- | --- | --- |
| NC[C@@]1(CC(=O)O)[C@@H]2CC[C@H]3C[C@@H]2[C@@H]1C3 |  | human, mild renal impairment, urine | oral, 20 mg single dose, 0-72 h |  | fraction excreted in urine | 72.7% |
| CC(=O)N(C)[C@H]1CCN(C(=O)c2cnc3c(c2)C[C@](C)(c2ccc(F)cc2)N3)C1 |  | male humans, urine | oral, 60 mg once daily, multiple dosing, geometric mean |  | fraction excreted in urine (0-48 h, steady state) | 57.4% |
| CC(=O)Nc1ccc(O)cc1 | estimated from MDCK Papp | MDCK knock-out, human | 1 µM, 90 min |  | fraction absorbed | 100% |
| CC(C)c1ncc(C(=O)N2CCOC3(CCN(Cc4ccc(F)c(CCNC[C@H](O)c5ccc(O)c6[nH]c(=O)sc56)c4)CC3)C2)s1 | equilibrium dialysis | human, plasma |  |  | fraction unbound | 0.081 |
| CNC(=O)c1ccc(-c2cnc3ncc(Cc4ccc5ncccc5c4)n3n2)cc1F | ultrafiltration | human moderate hepatic function, plasma | oral, 200 mg, 3 h post-dose, geometric mean |  | fraction unbound | 0.032 |
| OCc1cc(C(O)CNCCCCCCOCCCCc2ccccc2)ccc1O (stereo not shown) | equilibrium dialysis | human, plasma |  |  | fraction unbound | 0.066 |
| CCN1CCN(Cc2ccc(Nc3ncc(F)c(-c4cc(F)c5nc(C)n(C(C)C)c5c4)n3)nc2)CC1 | population PK model | human, plasma | oral |  | fraction absorbed via transit compartment | 0.493 |
| CC(C)n1nccc1-c1ncccc1COc1cccc(O)c1C=O | estimated from MDCK Papp | MDCK knock-out, human | 1 µM, 90 min |  | fraction absorbed | 100% |
| Cc1cc(-c2nccc3c2ccn3CC(=O)Nc2ccc(-c3cnccn3)cn2)ccn1 |  | human, urine | oral, 20 mg once daily, day 16, geometric mean |  | fraction excreted in urine (fe) | 1.07% |
| O=C(c1nc2n(n1)[C@H](c1ccccc1)C[C@@H]2F)C1CC1 |  | human | 225 mg single dose, mean |  | fraction excreted in urine 0-72 h | 0.22% |
| NCCONC(=O)[C@@H]1CC[C@@H]2CN1C(=O)N2OS(=O)(=O)O |  | human male, urine | intravenous infusion, 1 g multiple doses, day 9 |  | fraction excreted in urine (0-8 h) | 86.4% |
| CN[C@@H]1COc2c(S(=O)(=O)NC(=O)Nc3c4c(cc5c3CCC5)CCC4)cnn2C1 |  | healthy human volunteers, urine | oral, 600 mg, fasted |  | fraction excreted in urine 0-48 h | 0.125 |
| CC(C)(C)NCC(O)c1cc(O)cc(O)c1 (stereo not shown) | equilibrium dialysis | human, plasma |  |  | fraction unbound | 0.66 |
| CC(C)n1c(C2CCNCC2)nc2c([N+](=O)[O-])c(Br)c(Br)cc21 |  | human, urine | oral, 150 mg, median, single dose |  | fraction excreted in urine | 0.03 |
| CN1CCN(C2=Nc3cc(Cl)ccc3Nc3ccccc32)CC1 | rapid equilibrium dialysis | human, 10% plasma | 2 µM, 24 h, pH 7.4 |  | fraction unbound | 0.0525 |
| CCc1cc2c(cc1CC)CC(NC[C@H](O)c1ccc(O)c3[nH]c(=O)ccc13)C2 | equilibrium dialysis | human, plasma |  |  | fraction unbound | 0.051 |
| COc1cc(C(=O)NC2CCN(C)CC2)c(F)cc1Nc1ncc(C(F)(F)F)c(Oc2cccc3c2C(=O)N(C)C3)n1 |  | human, Taiwanese, urine | oral, 200 mg once daily, multiple dose, steady state, 0-24 h, geometric mean |  | fraction excreted in urine (fe0-24,ss) | 9.23% |
| COc1ccc(F)cc1C(=O)NCc1ccc(-c2nn([C@@H](C)C(F)(F)F)c(N)c2C(N)=O)cc1 |  | human male, urine and feces | oral, 200 mg, mass balance |  | fraction metabolised by UGT | 0.23 |
| CC(C)OC(=O)[C@@H](C)N[P@@](=O)(OC[C@H]1O[C@@H](n2ccc(=O)[nH]c2=O)[C@](C)(Cl)[C@@H]1O)Oc1ccccc1 |  | human | oral, dose not given, tablet |  | fraction of dose absorbed via route 1 | 67% |
| C[C@@H](Oc1ccc(S(C)(=O)=O)cc1C(=O)N1C[C@@H]2C[C@]2(c2cc(C(F)(F)F)on2)C1)C(F)(F)F |  | young healthy humans, urine | oral, 25 mg, 0 to 24 h, single dose |  | fraction excreted in urine | 1.85% |
| Cl.[2H]C([2H])([2H])CC(=O)c1cnc(NC(=O)C2CC2)cc1Nc1cccc(-c2ncn(C([2H])([2H])[2H])n2)c1OC |  | human, urine | oral, 60 mg once daily, nonfasted, multiple doses, mean |  | fraction excreted unchanged | 0.43% |
| Cn1cc(-c2cn3nccc3c(-c3cnn([C@]4(CC#N)C[C@@H](C#N)C4)c3)n2)cn1 |  | human, urine | oral, 400 mg once daily, day 10, dosing interval geometric mean |  | fraction excreted unchanged in urine | 0.8% |
| C[C@@H](N)c1cc(Cl)ccc1Cn1c(=S)[nH]c(=O)c2[nH]ccc21 |  | human matched controls, urine | oral, 2.5 mg single dose, 0-24 h | relative to: dose | fraction excreted unchanged | 55.1% |
| CC(C)(Sc1ccncc1-c1ccc(C#N)c2ccccc12)C(=O)O |  | human, urine | oral, 5 mg, with: febuxostat 10 mg |  | fraction excreted in urine (0-24 h) | 1.21% |
| Cc1ccc(C(=O)NC2CC2)cc1-n1ncc(C(=O)c2cccc(C#N)c2)c1N | mass balance study | human |  |  | fraction excreted renally | 11.7% |
